# Assay results pooled from the literature.
# Compare with care: the assays were run in different laboratories. Several values in a cell are separate wells, animals, samples, runs or records. Numbers after ± are the reported error.
SMILES,assay,test system,setting,scale,quantity,result
COc1ccc(-c2c(-c3ccc(C#N)c(F)c3)nc(N3CCC(N)CC3)n(C)c2=O)cc1F,measured: Diarrhea,relapsed/refractory marginal zone lymphoma patients,"oral, 60 mg, grade 3 to 4, dose expansion",,treatment-related adverse event incidence,0%
CC[C@H](C)[C@@H]1NC(=O)[C@H](CCCNC(=N)N)NC(=O)C[C@@H](c2cccc3ccccc23)NC(=O)[C@@H]2CSSC[C@H](NC(=O)C[C@@H](c3cccc4ccccc34)NC(=O)[C@H](CCCNC(=N)N)NC(=O)[C@@H]3CCCN3C(=O)[C@@H]3CCCN3C1=O)C(=O)N[C@@H](Cc1ccccc1)C(=O)N1CCC[C@H]1C(=O)N[C@@H](CC(=O)O)C(=O)N[C@@H](CC(=O)O)C(=O)N[C@@H](Cc1ccccc1)C(=O)N2,two-compartment model,athymic nude mice (Foxn1),"intravenous, 6 mg/kg",,distribution half-life,0.33 h
CCN1[C@@H](C(=O)NC23CCC(C(=O)O)(CC2)CC3)[C@H](c2cccc(Cl)c2F)[C@]2(C(=O)Nc3cc(Cl)ccc32)C12CCCCC2,,patients with advanced solid tumours,"oral, 200 mg",,grade ≥3 Neutropenia incidence,0%
Clc1ccc(-c2ccccc2)cc1,,"Sprague-Dawley rats, female, serum","inhalation, 23 µg/rat, 0 h after exposure",,creatinine,0.3 ± 0.05 mg/dL
Cc1ccc(F)c2cc(C(=O)N[C@@H]3CCC[C@H](N4CC[C@H](N(C)S(C)(=O)=O)C4)C3)[nH]c12,,CD1 mouse,"intravenous, 1 mg/kg",,clearance,53.3 mL/min/kg
CC(C)(C(=O)NC1C2CC3CC1CC(C(N)=O)(C3)C2)N1CCN(c2ccc(C(F)(F)F)cn2)CC1 (centres unmarked),,"human, plasma","10 mg once daily, 5 days, median",,dose-normalised free Cmax,0.168 (ng/mL)/mg
COc1cccc(Oc2ccccc2NC(=O)CNC(=O)c2cccc3ccccc23)c1,,"esterase-deficient SCID mice, male","oral, 15 mg/kg/day, 14 days, toxicity study",,serum globulin,2.1 g/dL and 2.3 g/dL
CN1CCN(S(=O)(=O)c2cc([N+](=O)[O-])ccc2N(CCOS(C)(=O)=O)CCOS(C)(=O)=O)CC1,,"NSG mice female, plasma","intraperitoneal, 10 mg/kg, 0.75 h",,concentration,0.41 µM
CC(=O)NCC(=O)NCC(=O)N[C@H](C(=O)N[C@@H](Cc1ccc(O)cc1)C(=O)N[C@@H](CO)C(=O)N[C@H]1CSSC[C@@H](C(=O)N[C@@H](CCCNC(=N)N)C(=O)N2CCC[C@H]2C(=O)N[C@@H](CCC(N)=O)C(=O)N[C@@H](CCCNC(=N)N)C(=O)NCC(=O)NCCC(=O)N[C@@H](CCCCNC(=O)CN(CC(=O)NCCCC[C@H](NC(=O)CCNC(=O)CNC(=O)[C@H](CCCNC(=N)N)NC(=O)[C@H](CCC(N)=O)NC(=O)[C@@H]2CCCN2C(=O)[C@H](CCCNC(=N)N)NC(=O)[C@@H]2CSSC[C@H](NC(=O)[C@H](CO)NC(=O)[C@H](Cc3ccc(O)cc3)NC(=O)[C@@H](NC(=O)CNC(=O)CNC(C)=O)[C@@H](C)O)C(=O)N[C@@H](Cc3c[nH]cn3)C(=O)N[C@@H](Cc3ccccc3)C(=O)NCC(=O)N[C@@H](C)C(=O)N[C@@H](CC(C)C)C(=O)N[C@@H]([C@@H](C)O)C(=O)N[C@@H](Cc3c[nH]c4ccccc34)C(=O)N[C@@H](C(C)C)C(=O)N2)C(N)=O)C(=O)CCN)C(N)=O)NC(=O)[C@H](C(C)C)NC(=O)[C@H](Cc2c[nH]c3ccccc23)NC(=O)[C@H]([C@@H](C)O)NC(=O)[C@H](CC(C)C)NC(=O)[C@H](C)NC(=O)CNC(=O)[C@H](Cc2ccccc2)NC(=O)[C@H](Cc2c[nH]cn2)NC1=O)[C@@H](C)O,MSD immunoassay,"BALB/c mice, healthy female, serum","subcutaneous, 0.08 mg/kg, 4 h, LLOQ 2.0 ng/mL",,serum concentration,not detected
O=S(=O)(Nc1ccccc1)c1ccc(NC(=S)Nc2ccccc2)cc1,,"female mouse, blood","oral, 20 mg/kg daily, 14 days",,albumin level,3.08 g/dL
Cn1cncc1-c1c(F)cncc1NC(=O)c1c(N)nn2cc(F)cnc12,,human patients,"oral, 270 mg once daily",,grade ≥3 anaemia incidence,50%
O=[N+]([O-])NC1=NCCN1Cc1ccc(Cl)nc1,,whole cow milk,20 nM nominal,,dose fraction in skim milk,96.6%
COc1ccnc(C(=O)N[C@H]2COC(=O)[C@H](Cc3ccccc3)[C@@H](OC(=O)C(C)C)[C@H](C)OC2=O)c1OCOC(=O)C(C)C,,dog,"oral, 90 day, highest dose tested",,NOAEL,939 mg/kg/day
O=C(Nc1ccccc1)C1CCN(C(=O)Oc2cccnc2)CC1,,healthy women,"oral, 20 mg, 7 days",,adverse event Headache,0%
CC(C)(O)c1cc(Nc2cc(Oc3cn(C4CC4)nc3C3CCOCC3)ccn2)ccn1,Fatigue,"patients with advanced cancer, grade 4 glioma expansion","oral, 50 mg twice daily, grade ≥3, 2 weeks on/2 weeks off schedule",,treatment-related adverse events,0%
C[C@]1(CO)Cc2ncn(-c3ccc(C#N)c(Cl)c3)c2C(=O)O1,,healthy Japanese subjects,"dose not given, single dose, all doses",,subjects with drug-related TEAE,11.1%
CCC(C)(C)c1cc(-n2nc3ccccc3n2)c(O)c(C(C)(C)CC)c1,measured: receptor fluid,reconstructed human epidermis EpiSkin,36 h,,cumulative absorption,41.8 ± 2.82%
COc1cc2c(Oc3ccc4[nH]c(C)cc4c3F)ccnc2cc1OCC1(N)CC1,,paediatric refractory sarcoma patients,8 mg,,Proteinuria incidence,25%
O=C(c1ccc(F)c(F)c1Nc1ccc(I)cc1F)N1CC(O)([C@@H]2CCCCN2)C1,,patients aged 2 to 6 years,"oral, dose not given",,SAE leading dose modification,20%
CC(C)[C@@H]1NC(=O)CNC(=O)[C@H](CC(N)=O)NC(=O)[C@H](CCCNC(=N)N)NC(=O)[C@H](Cc2ccc(O)cc2)NC(=O)[C@H](C(C)C)NC(=O)[C@@H](NC(=O)[C@@H](NC(=O)[C@H](CC(N)=O)NC(=O)[C@H](Cc2c[nH]c3ccccc23)NC(=O)[C@H](C)NC(=O)[C@H](Cc2ccccc2)NC(=O)CN)C(C)C)CSSC[C@@H](C(=O)N[C@@H](Cc2cnc[nH]2)C(=O)N[C@@H](CCCNC(=N)N)C(=O)N[C@@H](CCCNC(=N)N)C(=O)N[C@@H](C)C(=O)N[C@@H](CC(N)=O)C(N)=O)NC(=O)[C@H](C(C)C)NC(=O)[C@H](CCCNC(=N)N)NC1=O,,"ICR mouse, blood","intramammary, 10 mg/kg, day 5, 3 d dosing",,albumin,33.1 ± 1.22 g/L
CO[C@H]1C[C@@H]2CC[C@@H](C)[C@@](O)(O2)C(=O)C(=O)N2CCCC[C@H]2C(=O)O[C@H]([C@H](C)C[C@@H]2CC[C@@H](OC(=O)NCCOCCOCCOCCOCCOCCOCCOCCOCCC(=O)N3CCc4cc(Cn5nc(-c6ccc7oc(N)nc7c6)c6c(N)ncnc65)ccc4C3)[C@H](OC)C2)C[C@@H](O)[C@H](C)/C=C(\C)[C@@H](O)[C@@H](OC)C(=O)[C@H](C)C[C@H](C)/C=C/C=C/C=C/1C,,patients with advanced solid tumours,"intravenous, 8 mg weekly, grade 3 or higher",,mucositis incidence,0%
COc1cc(C(=O)NC2CCN(C)CC2)c(F)cc1Nc1ncc(C(F)(F)F)c(Oc2cccc3c2C(=O)N(C)C3)n1,,"human patients, plasma","oral, 100 mg single dose, geometric mean",,mean residence time,29.3 h
CCc1ccc(CC/C=C/c2ccc3c(c2)C(=O)CC3)cc1,,"Sprague-Dawley rat, female, blood","oral, 120 mg/kg/day, 14 days",,MCV,58.1 fL
NCCCC[C@@H]1NC(=O)[C@@H](Cc2c[nH]c3ccccc23)NC(=O)[C@H](c2ccccc2)NC(=O)[C@@H]2C[C@@H](OC(=O)NCCN)CN2C(=O)[C@H](Cc2ccccc2)NC(=O)[C@H](Cc2ccc(OCc3ccccc3)cc2)NC1=O,,healthy volunteers,"subcutaneous, 1950 µg twice daily, day 5, 0.50 h",,QTcI change from baseline,-1.2 ms
CCCCCCCCCCC[C@H](OC1OC[C@H](O)[C@@H](O)[C@@H]1O)[C@H](O)[C@H](O)C[C@@H]1CC(=O)N[C@H](CO)C(=O)N[C@H]([C@H](O)c2ccc(O)cc2)C(=O)N[C@H](CCN)C(=O)NCC(=O)N[C@@H](CC(N)=O)C(=O)N[C@@H](CO)C(=O)N[C@@H]([C@H](O)C(N)=O)C(=O)N1 (some centres unmarked),LC-MS/MS,rabbit plasma,"200 ng/mL, 6 freeze-thaw cycles",reference: nominal concentration,"freeze-thaw stability, deviation",-17.6%
CNC(=O)c1cc(Oc2ccc(NC(=O)Nc3cc(C(C)(C)C)nn3-c3ccc4ncccc4c3)c(F)c2)ccn1,"pulmonary oedema, NCI CTC v3.0",human patients,"oral, 150 mg twice daily, tablet, dose at onset",,related SAE,3%
CC[C@H](C)[C@H](NC(=O)[C@H](C)NC(=O)[C@H](CCCCN)NC(=O)[C@H](CC(C)C)NC(=O)[C@H](C)NC(=O)[C@@H](NC(=O)[C@H](Cc1c[nH]cn1)NC(=O)[C@H](CC(C)C)NC(=O)[C@@H](NC(=O)[C@@H](NC(=O)[C@H](CCCCN)NC(=O)[C@H](C)NC(=O)[C@H](C)NC(=O)[C@H](CO)NC(=O)[C@H](CCCCN)NC(=O)[C@H](Cc1ccccc1)NC(=O)[C@@H](NC(=O)[C@H](CCCCN)NC(=O)[C@H](CC(C)C)NC(=O)[C@H](Cc1ccccc1)NC(=O)[C@H](CO)NC(=O)[C@H](CCCCN)NC(=O)[C@H](Cc1c[nH]c2ccccc12)NC(=O)[C@H](CCCCN)NC(C)=O)[C@@H](C)O)[C@@H](C)O)C(C)C)[C@@H](C)O)C(=O)N[C@@H](CO)C(=O)N[C@@H](CO)C(N)=O,,"minipigs, both sexes, plasma","intravenous, 20 mg per animal",,AUC(0-t),12300 ± 1920 ng·h/mL
CC(=O)c1c(C)c2cnc(Nc3ccc(C4CCN(CCS(C)(=O)=O)CC4)cn3)nc2n(C2CCCC2)c1=O,,HR+/HER2- advanced breast cancer patients,"oral, 50 mg",,patients with TEAE grade ≥3,66.7%
O=C(Nc1ccc2c(c1)B(O)OC2)c1cccc(OCc2ccccc2)c1,PAMPA,,"200 µM, 5 h, pH 7.4",,membrane retention,16.9%
CN1CC[C@@H](c2c(O)cc(O)c3c(=O)cc(-c4ccc(C(F)(F)F)cc4Cl)oc23)[C@@H]1CO,measured: Syncope,relapsed B-cell malignancies or AML,"oral, 50 mg, grade 3-4, continuous dosing",,patients with adverse event,0%
C[C@@H](NC(=O)N1C(=O)[C@H](Cc2ccnc(N)c2)[C@H]1C(=O)O)C1CCCCC1,,healthy adult Chinese volunteers,"continuous intravenous infusion, 1.5 mg/kg/h, 5-day infusion, CTCAE 5.0 grading",,incidence of infusion site pain,0%
C=C(CN(C(=O)c1c(C(F)F)nn(C)c1F)C1CC1)c1ccc(Cl)cc1Cl,static acute toxicity test,zebrafish (Brachydanio rerio),"1.20 mg a.i./L, 48 h",,mortality,40%
O[C@H]1CCCN[C@@H]1CCCn1cnc2c(Cl)c(Cl)ccc21,,"healthy humans, plasma","oral, 150 mg, with: pirfenidone 600 mg",,median Tmax at steady state,5 h
COc1ncccc1-c1cnn2ccc(N3CCN(C(=O)OC(C)C)CC3)nc12,,"mouse nerve ligation model, brain","oral, 10 mg/kg, 120 min after last dose, repeat dosing day 4",,drug concentration,5.6 µM
C[C@]12CC[C@@H]3c4ccc(O)cc4CC[C@H]3[C@@H]1CCC2=O,ultrafiltration,cow milk whey,200 nM nominal in whole milk,,dose fraction in permeate,15.4%

# Repeated from above:
SMILES,assay,test system,setting,scale,quantity,result
Clc1ccc(-c2ccccc2)cc1,,"Sprague-Dawley rats, female, serum","inhalation, 23 µg/rat, 0 h after exposure",,creatinine,0.3 ± 0.05 mg/dL
O=C(Nc1ccccc1)C1CCN(C(=O)Oc2cccnc2)CC1,,healthy women,"oral, 20 mg, 7 days",,adverse event Headache,0%
C[C@@H](NC(=O)N1C(=O)[C@H](Cc2ccnc(N)c2)[C@H]1C(=O)O)C1CCCCC1,,healthy adult Chinese volunteers,"continuous intravenous infusion, 1.5 mg/kg/h, 5-day infusion, CTCAE 5.0 grading",,incidence of infusion site pain,0%
O=C(c1ccc(F)c(F)c1Nc1ccc(I)cc1F)N1CC(O)([C@@H]2CCCCN2)C1,,patients aged 2 to 6 years,"oral, dose not given",,SAE leading dose modification,20%
